Results gathered from unrelated publications.
A part holds a random share of what one study measured.

Block 1 — technique: RNA Bind-n-Seq; form: RNA; medium: in vitro; tested at: 100 nM; baseline: input RNA pool; direction: higher = stronger binding
Target: RING finger protein unkempt homolog, zinc fingers 1-6, SBP tag (UNK, Homo sapiens, UniProt Q9C0B0, residues 30-357)
Chain of UniProt Q9C0B0 (30-357, looked up): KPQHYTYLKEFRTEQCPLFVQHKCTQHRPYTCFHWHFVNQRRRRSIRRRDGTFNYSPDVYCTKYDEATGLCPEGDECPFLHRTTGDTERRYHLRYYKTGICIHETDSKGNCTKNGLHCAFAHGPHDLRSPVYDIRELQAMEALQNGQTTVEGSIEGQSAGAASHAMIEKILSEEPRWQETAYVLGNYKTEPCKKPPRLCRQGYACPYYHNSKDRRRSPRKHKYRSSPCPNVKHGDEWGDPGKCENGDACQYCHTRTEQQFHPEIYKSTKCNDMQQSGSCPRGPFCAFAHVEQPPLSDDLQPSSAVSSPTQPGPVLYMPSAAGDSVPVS
Notes: RNA with constant flanks, vertebrate orthologous sites, ends assumed
All sequences stand within: GGGAGUUCUACAGUCCGACGAUC … CAACAGAGGAUUGAGCAUCA
Sequence | bound/input enrichment [ratio]
CAGCGGAUUCUCUAAUAGGGAGAGCUGCACACAUUGCUGUUCUUGAUUCAGAAAUAUUUUUAGAAAAGUUCUUUCUGGUUGCUGCCCUAAAAUAUUUCCAGUAGAAGAAAAGCAUUGUAA | 0.575
UCUUUUUCCUUCCUUAUUUACUCCUUCCUUCCUUCUUUUCUUUCAUUUUUUUUUUUUUUGUAGUUGUUGUUACCCACGCCAUUUUACGUCUCCUUCACUGAAGGGCUAGAGUUUUAACUU | 2.86
GAACUAAAGGAGUUAGCAUCUUUAUUUUUGUAUCAAAGAUAAAGGUUAUUUUGAAAUUAUUAGGGUUUUUACACAACUUAAAUCUGUUGCUUUUAUAAACAAAUUGUUUGAUGUAGCGAC | 1.26
UUACAGUCAUUGAUGGACUCUAUUUUUUUAUUAUUACUUGGACCUUGGUCGUUUUUAUACUAGCAAAAUGUCUUGUUUUGAUUUGUGUUUUUUUUGGGGGGGGGUGGGGAGGGAGUGAAU | 2.26
GUUGUGAUCCCUUUAAUAUGCACAGAAAACUCUCAAAGAAAAACCUGCGUGCAAUUGACUUAGAUGAUGCAGCUUUUCUAAGUGCCAAGUUUGGAAGACAGUUUGUACCUGGUUGGAAGC | 0.832
ACAGGAGCAGCAUAGACUAUAAGAGCUUUGGGGAAAUGAGCUUUGCUUUUUAUUUUUGAAUAGGAUACUUUUAUAUGAUGGGUGCUUUGAGUGUGAAUACAGCAGGCUCUUCAUUUCAGA | 1.86
UGAGGGAGAGAUUCCUGUGGUUUUUUAAUACUUAAUUUGUUUUCUUUAGAUAUUCCAGUAUGCCAUUUUUUUUUUCCAGUAUGCCAUUUUUGAUGGAACUGGUUUAUUGACAGUUCCUGG | 1.86
AUUCAAACCUGUGGUGCCAUGGCCUCAUGUGGAAGGAGUAGAAGUGGACUUAGAGUCUAUUAGAAGAAAAAACAAGGCCAAAAAUGAACAGGAGCACCAUGCUGGAGGAGAUUCCCAAAA | 0.416
GCAAUGAAAAAACAGCCCUCCUCCCAGCCCCCAUUUCACUAGGAGAUACAAACAUUACCAUAGAAGAACAAUUUAACUCAAUAAAUUUAUCUUUUCAGGAUGAUCCAGACUCCAGUACCA | 1.21
CUCCGCCACCCCUGGGUGCCUGACUCCAGUGAAGCACUCACCAGUGCUGCAAGGGGUCCAGAGUAUUUUUUUGCUGCUUCAGUCCCCAAUGCCUUCCAGCAGAAGUGGCAGUAGACUGUU | 0.303
AGUAUCCCAGUUGUGCCGUGUUGGGUUGGCGUUGUACAGAAAUUAACAGCCAUAUUGGUCUAGAAAUGUUAAACAUAAUUUUUUCCAUUUGUACAGGGGUAACGCACUGUAUUAAAUAUG | 0.771

Block 2 — technique: RNA Bind-n-Seq; form: RNA; medium: in vitro; tested at: 365 nM; baseline: no-protein control; direction: higher = stronger binding
Target: RNA binding protein fox-1 homolog 2, RRM domain, GST-SBP tag (RBFOX2, Homo sapiens, UniProt O43251-10, residues 100-194)
Notes: natural RNA segment, single round, ends assumed
All sequences stand within: GGGAGUUCUACAGUCCGACGAUC … UGGAAUUCUCGGGUGCCAA
Target sequence (chain): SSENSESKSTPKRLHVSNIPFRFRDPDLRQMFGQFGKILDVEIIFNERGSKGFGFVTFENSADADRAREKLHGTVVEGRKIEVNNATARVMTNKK
Sequence | RBNS enrichment (R)
UGACCCUGUUUCAGAAGCAGGAUAGUAUAAAAGCAUCAGCCUAAGAAUGGCACUCCCACUAACUAGCUAUGUAAUCUUGACCUCUUUGGGCUUUAGUUCCUCUCAUAAAA | 0.803
GCAAUCUGGAGAGAGACUCGGUAGGAGUGUGUUGUCUUCUACUCGCAGUGCAUUGAAGGACCCAAGUCCUCAGCCUACUUUCCUACUUUCUGACUGUAGUAAAAGCUGCU | 0.824
AUUUAAGUUAUUUUAAUUUAUUGUGAAUCCGAAAACUAGAUUUAGUUGGUCAGAAUCUGUAAAGUACUAGCACCUAUCCCUUUGGAGCAGCAAUCAAAUGAUUUAGUCUU | 0.297
UGUGUCCUGGGGGAGAGAUGGCCACCUCCGUGGGCUGCGAAGAGCCACCCCUUCCUCUUCCGAUUCUCCUAGCAGCCACUCAGAGAUAAUUUAAUUCCAGAUUGGAAACG | 0.641
UCUCAAUAACUCUAAAAGGGAGGUGCUUGGGAUUAAGGUGACAGUCCACUUGAUCCUUUUCUUUGUUUUAGUGUGAAUUUCAGCAGCUCCAUCUGUCUUCAUGAUUGUAC | 0.661
CCUGCCAGUCAAGCAAUGAAUCCCAGCAGCCAUGGCCAGACAAUUCCUGUUCAGACUUUUCCUGAUGACAAUAGUAUCGAGGACACACCAUCAAAAUGUUACUGCCGGUU | 0.46
AAGGGACCCCCUCCCUGCUCCUGGGUCCCUGCGUGUGUGGGUGUGUGUCCGUGUGCAUGGCCUGUUUGUGUGCAAGGGCCCAGGACAGAAGUAUGUGUGCGUGUGUGUGU | 10.5
GGCCGGGCAAGCCAGAUUAGGCUUUGCUCCCAUACUCAGACAGUGCUGCAGAGCUGUGCCUCGCUGUGGAAAGCCCCAGCCCCACACAGAGAGCAAACAGUGAGAUAACA | 0.24
UAUAGUCAAGUGUAUUAUGUAAUCUCUAUUUAGAACAGUUUCCCAAAGGAAUGUGAUUGGAUUUACUGGUUGGUUAAUUUCUUGUGAAAUAUUGUCAUAAUAGAAGCACA | 1.67
CCUAUCUCCCUCCCACAGUGGAGUCCCCAUUACCUUGUCUAAAACAAUUUUUUAAUGUGUUCUGUGGCCGUUUUACUGACAGUAACUGCCAUUUCGUGUCUGUGGUAACA | 0.408
GCAUGGAACUUUUUCCGUUAUCACCCAGGCCUGAUUCACUGGCCUGGCGGAGAUGCUUCUAAGGCAUGGUCGGGGGAGAGGGCCAACAACUGUCCCUCCUUGAGCACCAG | 0.273
GUACUUUCUGUGGCGUGACCAAUCUUUACUGUUUUUCUAACUACAGAUGUAUGAACAUCCUUGGAGUGCCCACCCAGCACCCAGUGUUGAGUAUUAACCUUACAUUUUAC | 0.208

Block 3 — technique: protein-binding microarray; form: double-stranded DNA, one strand shown; medium: in vitro; tested at: 2540 nM top; notes: 60-bp whole probe; added: salmon DNA 0.4 mg/ml; baseline: random background probes; direction: higher = stronger binding; all sequences stand within: GCCTAGCAC … GTCTTGATTCGCTTGACGCTGCTG
Target: Interferon regulatory factor 3, full length, phosphomimetic (IRF3, Homo sapiens, UniProt Q14653, residues 1-427, S386D/S396D/S398D/S402D/T404D/S405D)
Chain of UniProt Q14653 (whole entry, unmodified, looked up): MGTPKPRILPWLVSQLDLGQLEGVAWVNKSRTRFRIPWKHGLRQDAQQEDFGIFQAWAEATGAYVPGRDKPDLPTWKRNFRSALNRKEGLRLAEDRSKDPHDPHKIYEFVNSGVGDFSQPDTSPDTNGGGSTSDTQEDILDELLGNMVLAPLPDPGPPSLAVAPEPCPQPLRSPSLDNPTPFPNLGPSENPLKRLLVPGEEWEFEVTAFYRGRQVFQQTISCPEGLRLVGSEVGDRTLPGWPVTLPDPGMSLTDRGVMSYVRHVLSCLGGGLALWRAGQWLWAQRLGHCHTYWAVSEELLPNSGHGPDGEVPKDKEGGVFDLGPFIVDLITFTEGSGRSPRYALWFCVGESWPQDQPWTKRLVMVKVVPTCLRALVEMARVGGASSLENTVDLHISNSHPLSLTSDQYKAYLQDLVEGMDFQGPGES
Sequence | fitted relative affinity [z-score]
TTAGGTATCGGGGCTGGGTTAGTGCTA | -0.00253
GACGGTTTCCTTCTCCTGAGGTGCTAG | 9.18
ATAGGTTTCCTTTCCCTTTAGTGCTAG | 10.7
GACGGTATCCTTTTCCTAACGTGCTAG | 7.95
GACCGTTTCCTTATCCTGACGTGCTAG | 6.24
GGGTTTTTTAGGCAGACAGCGTGCTAG | -0.0883
TTAGGTCTCGGTCTAGGTTAGTGCTAG | 0.293
GTCGGTTTCGGGTATCGGGACGTGCTA | 6.11
TTAGATTTCAATTTCGATTAGTGCTAG | 3.1
GACGGACTGCACACTGGGGACGTGCTA | -0.516
GACGGTTTCCTATTGCTGACGTGCTAG | 6.02
TGGGCTACCGGGTCCCTCTTGTGCTAG | -0.697
GAAGATCTCAGTTTCGAGACGTGCTAG | 2.42
TTAGGTATTGGTCTCGGTTAGTGCTAG | 0.906
TCAGGTCTCGGACTGGGTTAGTGCTAG | 0.388
TTAGGTATCGGGTTTCGGTTGGTGCTA | 3.18
GACGGGATCCTACTGCTGACGTGCTAG | 0.785
GACGGTTTCGACTTTCCGGACGTGCTA | 4.57
GACGGACTGGACTGTCGGGACGTGCTA | -0.467
TTATCAATCATTTTCGTTTTGTGCTAG | 3.03
GGCGGTATCCTTATCCTGACGTGCTAG | 5.62
GACGATATCGGGACTGGAGACGTGCTA | 0.16
GACGATTTCGGACTGGAGACGTGCTAG | 1.84
TTAGGTTCCGGTTTCGGTTTGTGCTAG | 9.15
TTCGGTCTCCTACTGCTTTAGTGCTAG | 1.84

Block 4 — technique: RNA Bind-n-Seq; form: RNA; medium: in vitro; tested at: 200 nM; notes: whole 134-nt RNA, ends assumed; added: 150 mM KCl; baseline: input library; direction: higher = stronger binding
Target: Fragile X messenger ribonucleoprotein 1, C-terminal low-complexity region (Fmr1, Mus musculus, UniProt P35922)
All sequences stand within: GGGAGUUCUACAGUCCGACGAUC … UGGAAUUCUCGGGUGUCAAGG
Sequence | log2 enrichment
UCCUGUGCUACACAUCGUAUGUACCGAAUCGGGGAAAAAGGGGUGGGGUUUUUUUGGGGAAAGUAUUAUGUUACGCCGUUCGGAUCUGCA | 0.712
CACAGACAACACGCACCCACACAGACACAGAGGGAAGGGGUUGGGAUGGGGGCAGGGUGCACAGCAGGGCGGGGUAGGACCCCAGCCCCU | 1.17
UAACUUUAGAGGAGGAUCUGAUGGAUAUCGCAGUGGACGUGGAUUUGGGGAUGGCUAUAAUGGGUAUGGAGGAGGACCUGGAGGUGGCAA | 0.299
UCAAGUCCUGUGCUACACAUCGUAUGUACCGAAUCGGGGUUUGGUUUGGUUUGGAAAGUAUUAUGUUACGCCGUUCGGAUCUGCACUUCC | 0.159
AGUCCUGUGCUACACAUCGUAUGUACCGAAUCGGGGAGGGGAAAAAAAGGGGUGGGGAAAGUAUUAUGUUACGCCGUUCGGAUCUGCACU | 0.878
UCAAGUCCUGUGCUACACAUCGUAUGUACCGAAUCGGGGAAGGAAGGGGAAGGGAAAGUAUUAUGUUACGCCGUUCGGAUCUGCACUUCC | 0.797
AGUCCUGUGCUACACAUCGUAUGUACCGAAUCGGGUUUUGGGUUUUGGGUUUUGGGGAAAGUAUUAUGUUACGCCGUUCGGAUCUGCACU | 0.981
GCAGGAAGUAAAAACAAAUGGAAAUGCUUCGGAUAGUGGCAGGGGUGUGGGUUGCUAAGGAAAGGGUGGGAUGGGAGUGGGUAAAGAGUU | 0.221
AGUCCUGUGCUACACAUCGUAUGUACCGAAUCAAACCCAAAUUUUUUUAAAUUUAAAAAAGUAUUAUGUUACGCCGUUCGGAUCUGCACU | -0.00881
GUCCUGUGCUACACAUCGUAUGUACCGAAUCAAAUUUUUAAACCCCCAAAUUUUUAAAAAAGUAUUAUGUUACGCCGUUCGGAUCUGCAC | 0.174
UAACUUUAGAGGAGGAUCUGAUGGAUAUGGCAGUGGACGUGGAUUUGGGGAUGGCUAUAAUGGGUAUGGAGGAGGACCUGGAGGUGGCUA | 0.253
UUCUGACUCAGAAUGUGCCAAAAAGGCUUUGGAACAACUUAAUGGAUUUGAACUAGCAGGAAGACCAAUGAAAGUUGGUCAUGUUACUGA | -1.57
GUCCUGUGCUACACAUCGUAUGUACCGAAUCAAAUUUUUAAAUUUUUUUAAAUUUAAAAAAGUAUUAUGUUACGCCGUUCGGAUCUGCAC | -1.39
UCCUGUGCUACACAUCGUAUGUACCGAAUCGGUUUUUUGGGUUUUUUGGGGUUUUUUGGAAAGUAUUAUGUUACGCCGUUCGGAUCUGCA | -0.00311
